Measured values gathered from unrelated publications.
A part holds a random share of what one study measured. Changes are numbered by the printed parent chain.

Set 1 — target: CCNE2, cyclin fold, Cln2 fusion (human); technique: yeast growth competition, sequencing; sample: yeast; setting: strong parent motif; relative to: not given; direction: higher = stronger binding
Starting sequence: WEE1 docking peptide (human); HKTFRKLRLFDTP; partner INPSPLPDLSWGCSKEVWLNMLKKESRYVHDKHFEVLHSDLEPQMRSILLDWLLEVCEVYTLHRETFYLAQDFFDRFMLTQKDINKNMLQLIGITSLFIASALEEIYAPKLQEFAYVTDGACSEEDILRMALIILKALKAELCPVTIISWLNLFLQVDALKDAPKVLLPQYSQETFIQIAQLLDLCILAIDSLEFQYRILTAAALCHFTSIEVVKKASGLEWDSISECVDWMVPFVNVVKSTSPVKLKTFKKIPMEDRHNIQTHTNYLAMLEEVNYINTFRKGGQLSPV
| Variant | normalised enrichment score |
| --- | --- |
| F4P | 0.512 |
| L7W | 1.04 |
| K2D | 0.47 |
| R8G | 0.867 |
| F4L | 0.674 |
| T3D | 0.113 |
| R5H | 1.53 |
| T3L | 0.21 |
| K6S | 1.01 |
| T12R | 1.48 |
| R5M | 1.1 |
| K6Q | 0.7 |
| H1S | 1.34 |

Set 2 — technique: protein-binding microarray; form: double-stranded DNA, one strand shown; sample: in vitro; concentration: 2540 nM top; setting: 60-bp whole probe; added: salmon DNA 0.4 mg/ml; relative to: random background probes; direction: higher = stronger binding; shared flanks, not repeated: GCCTAGCAC … GTCTTGATTCGCTTGACGCTGCTG
Target: Interferon regulatory factor 3, full length, phosphomimetic (IRF3, Homo sapiens, UniProt Q14653, residues 1-427, S386D/S396D/S398D/S402D/T404D/S405D)
Chain of UniProt Q14653 (whole entry, unmodified, looked up): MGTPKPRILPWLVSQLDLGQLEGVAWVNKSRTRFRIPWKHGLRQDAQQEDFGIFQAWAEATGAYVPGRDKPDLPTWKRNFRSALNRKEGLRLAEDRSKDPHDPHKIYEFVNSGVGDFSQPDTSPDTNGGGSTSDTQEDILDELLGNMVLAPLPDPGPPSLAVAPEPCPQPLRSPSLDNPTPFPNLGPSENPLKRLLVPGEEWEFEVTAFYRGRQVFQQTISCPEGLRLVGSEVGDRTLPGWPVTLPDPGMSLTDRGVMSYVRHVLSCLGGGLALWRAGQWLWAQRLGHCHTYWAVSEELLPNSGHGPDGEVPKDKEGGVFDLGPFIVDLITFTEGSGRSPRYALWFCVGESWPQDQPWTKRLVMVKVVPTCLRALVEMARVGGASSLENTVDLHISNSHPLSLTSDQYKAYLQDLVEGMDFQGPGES
| Sequence | fitted relative affinity [z-score] |
| --- | --- |
| TGTAGCTGGAGAAGTAAAACGTGCTAG | -0.495 |
| GTGTTATTAAAACTTCATGAAGTGCTA | 0.0358 |
| TTAAGTATCGACTATCGGTTAGTGCTA | 0.457 |
| ATAACCTTGAACTTCGGCCTGTGCTAG | -0.229 |
| GTCGGTTTCGGTTCCGGGACGTGCTAG | 10.9 |
| TCATCTTTGCTCATTTTTACTGTGCTA | 1.11 |
| TTAGGTTTCGACTTTCGGGTAGTGCTA | 3.52 |
| GACAAACTGGGGTTTCGAGACGTGCTA | 0.416 |
| GACGATCTGGGGACTGGAGACGTGCTA | -0.454 |
| TTAGATCTCAGTTTCGGTTAGTGCTAG | 4.99 |
| TTAGCTTTCAGTCTCGATTAGTGCTAG | 2.53 |
| TTAGATCTCATTCTCGATTAGTGCTAG | 1.82 |
| GACGATATCGGGACTGGAGACGTGCTA | 0.16 |
| TTAGAACTGGGGTTTCGAATAGTGCTA | 0.566 |
| GACGGACAGCTTTTCCTGACGTGCTAG | -0.324 |
| GACGGTCTCGGTATCTGGACGTGCTAG | 1.1 |

Set 3 — technique: protein binding microarray; form: double-stranded DNA, one strand shown; sample: in vitro; concentration: not given; relative to: not given; direction: higher = stronger binding
Target: Histone acetyltransferase KAT6A, winged helix 1, GST fusion (KAT6A, Homo sapiens, UniProt Q92794, residues 1-85)
Setting: 8-mer, flanks averaged, mean of 2 arrays, mostly near background
Construct (chain): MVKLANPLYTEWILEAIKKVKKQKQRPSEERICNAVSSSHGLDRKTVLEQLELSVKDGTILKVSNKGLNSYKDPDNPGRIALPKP
| Sequence | E-score |
| --- | --- |
| CCAATGTC | -0.128 |
| GGACTTAA | -0.0519 |
| ACACGTAC | -0.0333 |
| CATTACAC | -0.0356 |
| GCTGTTTA | -0.144 |
| AAACGTAT | 0.0123 |
| CCTCGAAC | -0.145 |
| CTAACCGA | 0.06 |
| CCTACCCA | -0.229 |
| CTGCCCCA | -0.162 |
| CTGCCGCA | 0.206 |
| GACCTCGA | -0.15 |
| GGGAATCA | -0.0658 |
| CGATGTAA | 0.109 |
| AACCCGCG | 0.396 |
| CTGTGCGC | 0.354 |
| CATACGTC | 0.0921 |
| ATCCACAA | -0.217 |

Further values, each from its own experiment
| Substance | target | test | test system | conditions | how to read | endpoint | result |
| --- | --- | --- | --- | --- | --- | --- | --- |
| PhoQ, residues 284 288 289 292 302 303 GLASVI | PhoP, residues 12 14 15 18 19 SFCSL (Escherichia coli, UniProt P23836) | Sort-seq, item: YFP reporter | E. coli | PhoQ-PhoP variant library, added: 10 µM Mg2+ | relative to: high Mg2+ state, higher = stronger signaling | fold induction | 6.28 |

Excerpt of the above (set 1):
| Variant | normalised enrichment score |
| --- | --- |
| F4L | 0.674 |
| T3D | 0.113 |
| R5H | 1.53 |
| T3L | 0.21 |
| K6S | 1.01 |
| T12R | 1.48 |
| R5M | 1.1 |
| K6Q | 0.7 |
